Published values from different studies.
Each line is one published result; not all experiments were run side by side. “And” joins repeats or separate records; there may be more than shown. ± marks the error that the study gave.
Sodium- and chloride-dependent glycine transporter 2: Sodium- and chloride-dependent glycine transporter 2 (Homo sapiens, UniProt Q9Y345)
Gria1/Gria2: Glutamate receptor AMPA 1/2 (Gria1/Gria2, Rattus norvegicus, UniProt P19490+P19491)
CA12: Carbonic anhydrase 12 (CA12, Homo sapiens, UniProt O43570)
GAP50: Glideosome-associated protein 50 (GAP50, Plasmodium falciparum, UniProt Q8I2X3)
bglA: bglA (Thermotoga maritima, UniProt Q08638)
17-beta-hydroxysteroid dehydrogenase 13: 17-beta-hydroxysteroid dehydrogenase 13 (Homo sapiens, UniProt Q7Z5P4)

Structure (SMILES)	tested on	test	system	conditions	how to read	measurement	result
CC1=CC(C)=[N+]2C1=C(CCCCCN1CCC(O)(c3ccc(Cl)cc3)CC1)c1c(C)cc(C)n1[B-]2(F)F	Sodium- and chloride-dependent glycine transporter 2	MS binding competition	–	10 µM	–	remaining specific binding	15.1 ± 1.8%
COC(=O)Cc1cc2c(cc1C(=O)c1ccccc1)OCO2	Gria1/Gria2	glutamate-evoked current, whole-cell patch clamp	HEK-293T	concentration not given, weighted tau, 500 ms pulse, added: glutamate	–	desensitization time constant	5.1 ± 0.3 ms
CC(=O)Nc1ccccc1-c1ccc(O)cc1	Uridine nucleoside ribohydrolase (Trichomonas vaginalis, UniProt A2FTT0)	enzyme activity, 19F NMR	–	200 µM, 1-fold dilution	–	inhibition after jump dilution	100%
Cc1cc(=O)oc2cc(OCCCCCCSC#N)ccc12	CA12	stopped-flow CO2 hydration	–	–	reference: Ki CA II over Ki CA XII	selectivity ratio	> 1580
CN(Cc1cc(C2CC2)on1)C(=O)c1cccc(-c2ccc3c(c2)CCO3)c1	Acetyl-coenzyme A synthetase 2 (ACS2, Candida albicans, UniProt Q8NJN3)	enzyme activity, inhibitor, coupled pyrophosphate	–	1 µM	higher is more activity	reaction rate	0.00306 a.u.
CC(=O)NCCCC[C@H](NC(=O)[C@H](CO)NC(=O)CNC(=O)[C@H](CCCCN)NC(=O)[C@H](CCCCN)NC(=O)[C@@H]1CCCN1C(=O)[C@H](C)NC(=O)[C@@H]1CCCN1C(=O)[C@H](C)NC(=O)[C@H](CO)NC(=O)[C@H](CCCCN)NC(=O)[C@H](C)NC(=O)[C@@H]1CCCN1C(=O)[C@H](CC(=O)O)NC(=O)[C@@H]1CCCN1)C(=O)N[C@@H](CCCCN)C(=O)N[C@@H](C)C(=O)N[C@H](C(=O)N[C@H](C(=O)O)[C@@H](C)O)C(C)C	YEATS domain-containing protein 4, YEATS domain (Homo sapiens, UniProt O95619)	isothermal titration calorimetry	–	concentration not given, pH 7.6, 25 °C, added: histone peptide	–	binding stoichiometry	1
CCN1CCN(Cc2ccc(C(=O)Nc3ccc(C)c(NCc4cnc5[nH]ccc5c4OC)c3)cc2C(F)(F)F)CC1	Tyrosine-protein kinase ABL1, non-phosphorylated (ABL1, Homo sapiens, UniProt P00519, Q252H)	binding, competition with immobilised ligand	–	1 µM	–	remaining binding	2.6%
O=C(O)Cc1cc2c(cc1C(=O)c1ccc(Cl)cc1Cl)OCO2	Gria1/Gria2	whole-cell patch clamp	HEK-293T	concentration not given, added: glutamate	–	desensitization time constant	2.8 ± 0.2 ms
CC1=CC(C)=[N+]2C1=C(CNCCO)c1c(C)cc(C)n1[B-]2(F)F	Sodium- and chloride-dependent glycine transporter 2	MS binding competition	–	10 µM	–	remaining specific binding	91.4 ± 4.3%
CCOC(=O)c1ccc2c(c1)C1CC(C)(N2)c2c(C)nc3ccc(C(=O)OCC)cc3c21 (stereo not shown)	GAP50	differential scanning fluorimetry	–	–	–	ΔTm	0 °C
OC[C@@H]1[C@@H](O)[C@H](O)[C@@H](O)c2nccn21	bglA	ITC	–	concentration not given, pH 6.8, 25 °C	–	binding stoichiometry	0.96 ± 0.03
COc1ccc(C2(C(=O)N3CCC(Nc4nc5ccccc5c(=O)[nH]4)CC3)CC2)cc1	MRGPRD (Homo sapiens, UniProt Q8TDS7)	miniGq recruitment, agonist, BRET1	HEK293T	–	reference: wild type	Emax	91.5 ± 2.36%
CC(=O)c1cnc(NS(=O)(=O)c2ccc(C(F)(F)F)c(Cl)c2)nc1	17-beta-hydroxysteroid dehydrogenase 13	enzyme activity	human hepatocytes, scramble siRNA, culture medium	96 h	reference: scramble siRNA control	oxidized product ratio	0.41 and 0.397 and 0.372 and 0.381
CC(C)Oc1cc(Cl)ccc1CNc1cc(-c2ccccc2)nc2ncnn12	GPR3 (Homo sapiens, UniProt P46089, L136A)	cAMP level, cAMP GloSensor	–	100 pM	higher = more cAMP	cAMP luminescence	52900 a.u. and 39400 a.u. and 49700 a.u. and 57400 a.u.
C=CC(=O)N1CCCC(n2c(=O)c3ncccc3n(Cc3ccc(Oc4ccccc4)cc3)c2=O)C1 (stereo not shown)	WAS (Homo sapiens, UniProt P42768)	thermal proteome profiling	–	10 µM, unit not given	reference: untreated control	melting temperature shift	-12.3
COC(=O)[C@@]1(C)C=C(C(=O)Nc2cccc(C(=O)Nc3ccc(Nc4nccc(-c5cccnc5)n4)c(C)c3)c2)C(=O)CC1	MAPK1 (Homo sapiens, UniProt P28482)	enzyme activity, inhibitor	–	1.646 µM, unit not given	reference: vehicle	remaining activity	0.996 and 0.986 and 0.881
Cc1cc(C(c2ccc(Cl)cc2)c2ccc(Cl)cc2)c2nccc(C)c2c1	GAP50	differential scanning fluorimetry	–	–	–	ΔTm	-1 °C
CC[C@H](C)[C@@H]1NC(=O)[C@H](Cc2ccccc2)NC(=O)[C@H](CCC(=O)O)NC(=O)[C@H](CCCNC(=N)N)NC(=O)CNC(=O)[C@@H](NC(=O)[C@H](CC(C)C)NC(=O)[C@H](CCCNC(=N)N)NC(=O)[C@@H](NC(=O)CNC(=O)[C@H](Cc2ccc(O)cc2)NC(=O)[C@@H]2CCCN2C(=O)[C@H](C)NC(=O)[C@H](C)NC(=O)[C@@H](N)CCCNC(=N)N)C(C)C)CSSC[C@@H]2NC(=O)[C@@H](NC(=O)[C@H](CO)NC(=O)[C@H](CO)NC(=O)[C@H](CO)NC(=O)[C@H](CC(C)C)NC(=O)CNC(=O)[C@H](C)NC(=O)[C@H](CC(C)C)NC(=O)[C@@H](NC(=O)[C@@H](N)CC(=O)O)C(C)C)CSSC[C@H](NC(=O)CNC(=O)[C@H](Cc3c[nH]c4ccccc34)NC(=O)[C@H](CCCCN)NC2=O)C(=O)N[C@@H](CO)C(=O)N[C@@H](CCCCN)C(=O)N[C@@H](CO)C(=O)N[C@@H](CCC(=O)O)C(=O)N[C@@H]([C@@H](C)CC)C(=O)N[C@@H](CO)C(=O)N[C@@H](CO)C(=O)N[C@@H](CC(C)C)C(=O)N[C@H](C(=O)O)CSSC[C@@H](C(=O)NCC(=O)NCC(=O)N[C@@H](CO)C(=O)N[C@@H](CCCNC(=N)N)C(=O)N[C@@H](Cc2c[nH]c3ccccc23)C(=O)O)NC(=O)[C@H]([C@@H](C)O)NC(=O)[C@H](Cc2ccccc2)NC(=O)[C@H]([C@@H](C)CC)NC(=O)[C@H](C(C)C)NC(=O)[C@H](C)NC(=O)[C@H](CCCNC(=N)N)NC1=O	RXFP3 (Homo sapiens, UniProt Q9NSD7, D145A)	–	HEK-293T	–	reference: wild type	Emax	25.7 ± 5.31%
CN(C)CCCSC(=S)N1CCN(C(=O)/C=C/c2coc3ccccc3c2=O)CC1	Nucleoprotein (N, Tomato spotted wilt virus, UniProt P25999)	binding, microscale thermophoresis	–	7.812 µM	dose series	normalised MST response	0.0212
CCCCCC(O)/C=C/C=O (stereo not shown)	PHGDH (Homo sapiens, UniProt O43175)	competitive isoTOP-ABPP	Ramos soluble proteome	100 µM, 60 min, added: iodoacetamide probe	reference: DMSO over compound-treated, higher = stronger cysteine blockade	isoTOP-ABPP competition ratio	12

Structure (SMILES)	tested on	test	system	conditions	how to read	measurement	result
COCCOc1cc2ncnc(Nc3cccc(-c4cn(-c5ccccc5S(N)(=O)=O)nn4)c3)c2cc1OCCOC	CA12	–	–	–	reference: Ki hCA I over Ki hCA XII	selectivity ratio	125
CCCCCCCCCCCCCCCc1cccc(OCC)c1C(=O)Nc1ccc(Cl)c(C(F)(F)F)c1	KAT5 (Homo sapiens, UniProt Q92993)	SPR	–	5.56 µM	higher = more binding	SPR binding response	0.216 RU
COC(=O)Cc1cc2c(cc1C(=O)c1ccccc1Cl)OCO2	Gria1/Gria2	glutamate-evoked current, whole-cell patch clamp	HEK-293T	concentration not given, pH 7.4, holding potential -60 mV, added: 10 mM glutamate	–	current amplitude	256 ± 16 pA
Cc1ccc(NC(=O)NC(C)(C)c2cccc(NC3=CC(=O)N(C4CCC(=O)NC4=O)C3=O)c2)cc1Cl (stereo not shown)	Cyclin-H (Homo sapiens, UniProt P51946)	degrader, quantitative proteomics, item: protein abundance	Jurkat	1 µM, 4 h	reference: DMSO	log2 fold change	-0.22
CC1=C(/C=C/C(C)=C\C=C\C(C)=C\C=O)C(C)(C)CCC1	Rhodopsin (RHO, Homo sapiens, UniProt P08100, P23H)	ER retention, co-localization with calnexin	COS-7 transfected P23H	10 µM, multinucleated cells	–	Pearson correlation coefficient	0.686 ± 0.018
O=C(O)Cc1cc2c(cc1C(=O)c1ccccc1I)OCO2	Gria1/Gria2	whole-cell patch clamp	HEK-293T	concentration not given, added: glutamate	–	desensitization time constant	4.4 ± 0.3 ms
Cc1c(Cc2ccccc2)c(NCCN(C)C)n2c(nc3ccccc32)c1C#N	Trypanosoma cruzi	reporter mRNA translation, inhibitor, item: Renilla luciferase mRNA	cell-free extract	concentration not given, test 1	reference: positive over negative control	translation activity	112% and 106%
N#CN1CC[C@H](C(=O)Nc2nc3c(s2)CN(C(=O)Cn2cc(COCCOCCOCCOCCNC(=O)CCCC[C@@H]4SC[C@@H]5NC(=O)N[C@@H]54)nn2)CC3)C1	EEF1A1 (Homo sapiens, UniProt P68104)	probe binding, affinity probe, neutravidin pull-down LC-MS/MS	HEK293T, cell lysate	5 µM, 1 h, single replicate, unit not given	higher = more pulled down	iBAQ abundance	6.75e+08 and 3.83e+08 and 5.13e+08
CC(C)[C@@H]1NC(=O)[C@H](Cc2ccccc2)NC(=O)CSC[C@@H](C(N)=O)NC(=O)[C@H](CCC(=O)O)NC(=O)[C@H](CO)NC(=O)[C@H](Cc2c[nH]c3cccc(Cl)c23)NC(=O)[C@H](C2CCCCC2)NC(=O)[C@H](C(C)C)NC(=O)[C@H](Cc2ccc(O)cc2)NC(=O)[C@H](CC(=O)O)NC(=O)[C@H](Cc2c[nH]c3ccccc23)NC(=O)[C@H](Cc2ccc(N)nc2)NC(=O)[C@H](Cc2c[nH]c3ccc(Cl)cc23)NC(=O)[C@H](CCC(=O)O)NC1=O	Interleukin-1 receptor-like 2 (IL1RL2, Homo sapiens, UniProt Q9HB29)	reporter gene (SEAP), inhibitor, HEK-Blue IL-36R reporter	HEK-Blue IL-36R cells	0.015 µM, 6 h, added: IL-36β 3 ng/mL	–	remaining activity	92.8%
C[C@@H](O)c1ccc(NS(=O)(=O)c2ccc(Cl)c(Cl)c2)cc1	17-beta-hydroxysteroid dehydrogenase 13	substrate, NADH fluorescence	–	–	–	Km	15.3 µM
O=C(N1CCCC1)n1cc(-c2ccc(-c3ccccc3)cc2)nn1	S-formylglutathione hydrolase (Esd, Mus musculus, UniProt Q9R0P3)	enzyme activity, inhibitor, competitive ABPP-SILAC, item: Esd	mouse T-cells	concentration not given, 4 h, treated in situ	reference: DMSO	activity ratio	1.04
CCCCCCCO[C@H]1O[C@H](CO)[C@@H](O)[C@H](O)[C@@H]1O	Type 1 fimbrin D-mannose specific adhesin, lectin domain (fimH, Escherichia coli K-12, UniProt P08191)	binding, isothermal titration calorimetry	–	25 °C, individual direct titrations	–	ΔG	-10.3 kcal/mol
COc1cc2ncnc(Nc3ccc(Oc4cccc(C)c4)cc3)c2cc1OC	SMUG1 (Homo sapiens, UniProt Q53HV7)	enzyme activity, activator, fluorescence	–	2 µM	reference: control	activity	120 ± 70%
Cc1ccc(C(=O)Nc2ccc(CN3CCN(C)CC3)c(C(F)(F)F)c2)cc1C#Cc1cnc2cccnn12	STK17B (Homo sapiens, UniProt O94768)	target engagement, NanoBRET	human cells	–	–	upper asymptote	317
O=C1c2sc(-c3ccc(N4CCC(F)C4)nc3F)nc2CCN1c1cccnc1 (stereo not shown)	TAR DNA-binding protein 43, aggregated (TARDBP, Homo sapiens, UniProt Q13148)	saturation autoradiography	human, FTLD-TDP type A brain sections	2.98 nM	–	specific binding	43 nM
Cc1ccsc1C(=CCCSC1CCN(C)CC1C(=O)O)c1sccc1C (stereo not shown)	Sodium- and chloride-dependent glycine transporter 2	MS binding competition	–	10 µM	–	remaining specific binding	110 ± 5.9%
Cc1cc(=O)oc2cc(NC(=O)CCCCCCC(=O)NO)ccc12	HDAC8 (Homo sapiens, UniProt Q9BY41)	ITC	phosphate buffer	pH 7.5	–	TΔS	2.8 kcal/mol
OC[C@H]1c2[nH]cnc2[C@H](O)[C@@H](O)[C@@H]1O	bglA	ITC	–	pH 5.8, 25 °C	–	ΔG	-6.07 ± 0.215 kcal/mol
CCCCCCCCCCCCCCCC(=O)OCC(CSC[C@H](N)C(=O)N[C@@H](CO)C(=O)N[C@@H](CCCCN)C(=O)N[C@@H](CCCCN)C(=O)N[C@@H](CCCCN)C(=O)N[C@@H](CCCCN)C(=O)NCCCCCC(=O)N[C@@H](CCCCN)C(=O)N[C@@H](CC(C)C)C(=O)N[C@H](C(=O)N[C@@H](Cc1ccccc1)C(=O)N[C@@H](Cc1ccccc1)C(=O)N[C@@H](Cc1ccc2ccccc2c1)C(=O)O)C(C)C)OC(=O)CCCCCCCCCCCCCCC (stereo partly shown)	Amyloid-beta precursor protein, fibrillar amyloid-beta (APP, Homo sapiens, UniProt P05067)	TEM	–	2.0 eq, 28 h, fibril 7, added: APP 20 µM	–	fibril diameter	20.9 nm
CCCCCC=CC=C1C(=O)C=CC1CC=CCCCC(=O)O (stereo not shown)	PSMB8 (Homo sapiens, UniProt P28062)	competitive isoTOP-ABPP	Ramos soluble proteome	100 µM, 60 min, added: iodoacetamide probe	reference: DMSO over compound-treated, higher = stronger cysteine blockade	isoTOP-ABPP competition ratio	4.7
